Measured values gathered from unrelated publications.
Protocols differ between the studies behind these lines. Values joined by “and” are separate records of one study, mostly repeats; a detail may differ. ± marks the error that the study gave.

The delta Tm of `NCCCOc1cc(NC(=O)c2cc(OCCN)cc(C(=O)Nc3cc(OCCCN)c4ccccc4n3)n2)nc2ccccc12` is reported as 0.9 ± 0.2 K (double-stranded DNA; FRET melting; 1 µM, pH 7.4, 60 mM potassium, together with: oligonucleotide 200 nM).
`COC1=C(OC)C(=O)C(CC=C(C)C)=C(C)C1=O` has a kcat of 0.52 ± 0.03 s⁻¹ (FSP1 F15A mutant; substrate; together with: 100 µM co-substrate).
`Nc1nc2c(nc(Br)n2[C@@H]2O[C@@H]3COP(=O)(O)O[C@H]3[C@H]2O)c(=O)[nH]1`: “time constant of current decay” 32.7 ± 7.6 s (cone CNG channel; Morone saxatilis, cone outer segment; 15 µM in electrode, -35 mV).
For `N#Cc1ccn2c(-c3ccncc3)c(-c3ccc(F)cc3)nc2c1`, “log2 fold change” read 0.0709 (orf19.4575 kinase Candida albicans; MIB/MS competition binding; Candida albicans cell lysate; 1 µM; baseline: DMSO, lower = stronger binding).
The ΔTm of `CN(C)CCCn1c(=O)c2ccc3c(=O)n(CCCN(C)C)c(=O)c4c5[nH]c6cc(C(=O)O)ccc6[nH]c5c(c1=O)c2c34` is reported as 1.8 ± 0.6 °C (double-stranded DNA; FRET melting; 0.25 µM, K+ 100 mM).
`CC(Nc1nc(N2CCCC2)nc2ccccc12)c1ccccc1` (stereo not drawn): “cells with nuclear reporter” 91.4% and 99% (importin α/β1; cMyc nuclear import, high content imaging; HeLa Kyoto reporter; 10.01 µM, 2 h).
With `C#CCOc1cc(C(=O)Nc2cc(OCCN)c3ccccc3n2)nc(C(=O)Nc2cc(OCCN)c3ccccc3n2)c1` the delta Tm was 0 ± 0.1 K (double-stranded DNA; FRET melting; 1 µM, pH 7.4, 60 mM potassium, together with: oligonucleotide 200 nM).
Under “log2 fold change”, `Oc1ccccc1-c1n[nH]cc1-c1ccnc2ccccc12` is recorded as 0.11 (IKS1 (Candida albicans); kinase binding, MIB/MS competition; Candida albicans lysate; 1 µM; baseline: DMSO).
The IC90 of `Nc1ccn([C@H]2CC[C@@H](CO)O2)c(=O)n1` is reported as 939 nM (HIV-1; viral replication; human immunodeficiency virus 1).
For `N#Cc1ccc2c(-c3ccncc3)c(-c3ccc(F)cc3)nn2c1`, “log2 fold change” read 0.102 (orf19.4575 kinase Candida albicans; MIB/MS competition binding; Candida albicans cell lysate; 100 nM; baseline: DMSO, lower = stronger binding).
`C[C@H](CCC(C)(C)O)[C@H]1CC[C@H]2[C@@H]3CC=C4C[C@@H](O)CC[C@]4(C)[C@H]3CC[C@]12C` gave a Hill coefficient of 0.54 (NMDA receptor, rat; ion current, potentiator; rat hippocampal neurons; together with: NMDA 10 µM).
The ΔTm of `NCCOc1cc(C(=O)Nc2cc(OCCN3CCCC3)c3ccccc3n2)nc(C(=O)Nc2cc(OCCN3CCCC3)c3ccccc3n2)c1` is reported as 35.5 ± 0.9 K (human telomeric G-quadruplex DNA; FRET melting; 1 µM, pH 7.4, together with: 60 mM potassium).
`Cl.OCCNc1nc(Nc2ccccc2)nc2ccccc12` gave an inhibition of 77.8% (Trypanosoma cruzi ribosome; translation, refers to: Renilla luciferase; Trypanosoma cruzi extract; 40 µM).
`CCN1CCN(Cc2ccc(NC(=O)c3ccc(C)c(OCc4cnc5[nH]ccc5c4OC)c3)cc2C(F)(F)F)CC1` has an inhibition of greater than 80% (ABL/ARG kinases (human); KiNativ profiling; Huh-7 cell lysate; 1.0 µM).
For `C#Cc1cc(-c2cc(Nc3nc(N[C@@H](C)c4ccc(F)cn4)ncc3Cl)n[nH]2)ccc1C=O`, the inhibition was 80.3% and 78.7% (NCOA4-RET kinase fusion, human; kinase activity, inhibitor; 0.2 µM).
The delta Tm of `COc1cc(C(=O)Nc2cc(OCCN3CCCC3)c3ccccc3n2)nc(C(=O)Nc2cc(OCCN3CCCC3)c3ccccc3n2)c1` is reported as 1 ± 0.3 K (double-stranded DNA; FRET melting; 1 µM, pH 7.4, 60 mM potassium, together with: oligonucleotide 200 nM).
Under “log2 fold change”, `c1ccc(-c2n[nH]cc2-c2ccnc3ccccc23)nc1` is recorded as 1.62 (orf19.4575 kinase Candida albicans; MIB/MS competition binding; Candida albicans cell lysate; 10 µM; baseline: DMSO, lower = stronger binding).
With `CN(C)c1nccc(-c2cnc3ncccn23)n1` the remaining binding was 100% and 66% (human kinase panel; KINOMEscan; concentration not given; baseline: control).
`O=c1ncccn1[C@@H]1O[C@H](CO)[C@@H](O)[C@H]1O` has a viability of 146% (OCI-Ly1; 0.5 µM, 120 h).
With `CN(C)CCCn1c(=O)c2cc(Br)c3c(=O)n(CCCN(C)C)c(=O)c4c5[nH]c6ccc(C(=O)O)cc6[nH]c5c(c1=O)c2c34` the ΔTm was 1.5 ± 0.1 °C (double-stranded DNA; FRET melting; 0.25 µM, K+ 100 mM).
The ΔTm of `NCCOc1cc(NC(=O)c2cc(OCc3c[nH]nn3)cc(C(=O)Nc3cc(OCCN)c4ccccc4n3)n2)nc2ccccc12` is reported as 7.2 ± 0.6 K (c-kit2 G-quadruplex DNA; FRET melting; 1 µM, pH 7.4, together with: 60 mM potassium).
Under “log2 fold change”, `c1coc(-c2n[nH]cc2-c2ccnc3ccccc23)c1` is recorded as 0.01 (KNS1 (Candida albicans); kinase binding, MIB/MS competition; Candida albicans lysate; 10 µM; baseline: DMSO).
With `COc1ccc(CNc2c(CO)cnc3c(C4CC4)cc(C#N)cc23)cn1` the IC50 was greater than 10000 nM (PDE1; enzyme activity).
For `CC1=CC(=O)CC(C)(C)[C@@]1(O)/C=C/C(C)=C\C(=O)O`, the viability was 8.09% (OCI-Ly1; 0.5 µM, 120 h).
For `NCCOc1cc(C(=O)Nc2cc(OCCN)c3ccccc3n2)nc(C(=O)Nc2cc(OCCN)c3ccccc3n2)c1`, the ΔTm was 34.8 ± 0.6 K (human telomeric G-quadruplex DNA; FRET melting; 1 µM, pH 7.4, together with: 60 mM potassium).
The IC90 of `CC(C)c1nc(CN(C)C(=O)N[C@H](C(=O)N[C@@H](Cc2ccccc2)C[C@H](O)[C@H](Cc2ccccc2)NC(=O)OCc2cncs2)C(C)C)cs1` is reported as 76.7 nM (HIV-1; viral replication; human immunodeficiency virus 1).
`O=C(Nc1cc(OCCN2CCCC2)c2ccccc2n1)c1cc(Cl)cc(C(=O)Nc2cc(OCCN3CCCC3)c3ccccc3n2)n1` has a ΔTm of 9.6 ± 0.7 K (c-kit2 G-quadruplex DNA; FRET melting; 1 µM, pH 7.4, together with: 60 mM potassium).
`CC(C)OC(=O)OCOP(=O)(CO[C@H](C)Cn1cnc2c(N)ncnc21)OCOC(=O)OC(C)C` gave an IC90 of 10.8 nM (HIV-1; viral replication; human immunodeficiency virus 1).
`C#CCOc1cc(C(=O)Nc2cc(OCCCN)c3ccccc3n2)nc(C(=O)Nc2cc(OCCCN)c3ccccc3n2)c1` has a ΔTm of 9.6 ± 0.4 K (c-kit2 G-quadruplex DNA; FRET melting; 1 µM, pH 7.4, together with: 60 mM potassium).
`CCn1c(-c2nonc2N)nc2c(C#CC(C)(C)O)ncc(OC[C@H]3CCCNC3)c21` — result for PRAS40 phosphorylation: “inhibited” (AKT human; inhibitor; concentration not given).

For quick reference, copied from above:
`C[C@H](CCC(C)(C)O)[C@H]1CC[C@H]2[C@@H]3CC=C4C[C@@H](O)CC[C@]4(C)[C@H]3CC[C@]12C` gave a Hill coefficient of 0.54 (NMDA receptor, rat; ion current, potentiator; rat hippocampal neurons; together with: NMDA 10 µM).
The ΔTm of `NCCOc1cc(C(=O)Nc2cc(OCCN3CCCC3)c3ccccc3n2)nc(C(=O)Nc2cc(OCCN3CCCC3)c3ccccc3n2)c1` is reported as 35.5 ± 0.9 K (human telomeric G-quadruplex DNA; FRET melting; 1 µM, pH 7.4, together with: 60 mM potassium).
`Cl.OCCNc1nc(Nc2ccccc2)nc2ccccc12` gave an inhibition of 77.8% (Trypanosoma cruzi ribosome; translation, refers to: Renilla luciferase; Trypanosoma cruzi extract; 40 µM).
